{"data": "Assay results pooled from the literature", "note": "Parts stem from different laboratories: compare values within a part only.", "sequence of UniProt Q9C0B0 (30-357, looked up)": "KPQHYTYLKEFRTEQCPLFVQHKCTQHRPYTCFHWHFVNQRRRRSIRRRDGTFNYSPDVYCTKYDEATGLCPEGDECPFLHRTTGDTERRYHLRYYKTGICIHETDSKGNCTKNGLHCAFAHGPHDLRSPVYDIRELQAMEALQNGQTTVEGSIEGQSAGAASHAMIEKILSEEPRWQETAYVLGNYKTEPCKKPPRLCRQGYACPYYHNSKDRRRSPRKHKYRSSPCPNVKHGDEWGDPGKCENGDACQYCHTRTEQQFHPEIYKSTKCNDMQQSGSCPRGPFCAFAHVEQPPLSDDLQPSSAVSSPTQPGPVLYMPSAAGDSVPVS"}
{"data": "Study 1", "target": "RNA binding protein fox-1 homolog 2, RRM domain, GST-SBP tag (RBFOX2, Homo sapiens, UniProt O43251-10, residues 100-194)", "technique": "RNA Bind-n-Seq", "form": "RNA", "medium": "in vitro", "concentration": "365 nM", "notes": "natural RNA segment, single round, ends assumed", "baseline": "no-protein control", "direction": "higher = stronger binding", "Target sequence (chain)": "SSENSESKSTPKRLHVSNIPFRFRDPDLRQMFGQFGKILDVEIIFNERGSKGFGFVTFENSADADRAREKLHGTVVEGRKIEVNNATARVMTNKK"}
{"Oligonucleotide": "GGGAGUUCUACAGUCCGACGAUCGUAAGCUGUAGCUUUGAGUUGCAAAGAAGUCACAGGAAAGAACCAUUUGGGUUUCUGAAGUACAAGUAUUGAGCAACAUGAAGGGCAGUGUUGCCCAGCUCAGGGUGUCUUGGAAUUCUCGGGUGCCAA", "RBNS enrichment (R)": 1.19}
{"Oligonucleotide": "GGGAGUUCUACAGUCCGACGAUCUGUCUUUUUCCACUGAAGUGUGACAUUUUGUUAGUACAUUUCAGUGUAGUCAUUCAUUUCUAGCUGUACAUAGGAUGAAGGAGAGAUCAGAUACAUGAACAUGUCUUACAUGGAAUUCUCGGGUGCCAA", "RBNS enrichment (R)": 0.437}
{"Oligonucleotide": "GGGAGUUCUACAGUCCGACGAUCACCUCCCCUGACACCCCAGUCCUGGUUGGCCCUUUCUCCUGCCUUGCCCUGAAGUCUUACCUUCUCCCAUUGCAUUCAAGGCCUAUAGCACAAAGUGCAUCUCAGAGAUGUGGAAUUCUCGGGUGCCAA", "RBNS enrichment (R)": 0.66}
{"Oligonucleotide": "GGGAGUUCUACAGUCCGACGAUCGUGAGUUUAGCCAAACUAACAGCAGAAAUAAUACUGGAUUUUGAGUAAGCAGACUUAGGAGAAUAUUUGUUUUAAAAUUCAUGUAACAGAUUUCCCUUUGAAGAAACACUUGGAAUUCUCGGGUGCCAA", "RBNS enrichment (R)": 0.455}
{"Oligonucleotide": "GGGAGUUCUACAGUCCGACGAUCCCUGCUGGGCUCUGGGCAGCCCUGCAGUUCCCUCUCUGGCUCUUCCACUCUCUGUGGGGUCCUGCGUACCUACAGGGUGGCCUGAAAACAGACUCCACACGUGGAAACAAUGGAAUUCUCGGGUGCCAA", "RBNS enrichment (R)": 0.451}
{"Oligonucleotide": "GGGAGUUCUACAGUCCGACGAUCACACAAGUAGCACCGUGUCGCCUCCCUUUAUCUUCAUAUUGAUAAAAGACUUUAUGUGGAUCUUGUAAAACAGAACCAGAUCUCCUUCUGGGGAAGGCCUUGCCUCUAGGUGGAAUUCUCGGGUGCCAA", "RBNS enrichment (R)": 0.71}
{"Oligonucleotide": "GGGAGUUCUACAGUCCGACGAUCAUGCAAAUAUUACAUAUGAUGGGUGCAUUGUCAGAGGGAAAAUAUAUGUGUAUGUACACAUGUGUAUGUACACACACACACACACCUGCCAUACACUUUAGAAGAACGCUUGGAAUUCUCGGGUGCCAA", "RBNS enrichment (R)": 0.233}
{"Oligonucleotide": "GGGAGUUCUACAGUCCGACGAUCUGGUCACAGCAUGGAGGCCUUGAGAGCCUGGCCAGGUGGCCCUCCAUGUGAGGUUGUGGUCACAGCAUGGGGGCCUUGAGAGCCUGGCCAGGUGGCCCUCCACGUGAGGUUGGAAUUCUCGGGUGCCAA", "RBNS enrichment (R)": 0.924}
{"Oligonucleotide": "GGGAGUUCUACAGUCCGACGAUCUUGGUCACUGUUAUUUGCCUACUGCUGGAAGAAGGACAACCGCUGGCAAGGUAGCGUUCCCCAAUCUGAAUACCUGCAGGCUCCCACAUGAGGGAGAGGGCAGACUCAGGUGGAAUUCUCGGGUGCCAA", "RBNS enrichment (R)": 0.298}
{"Oligonucleotide": "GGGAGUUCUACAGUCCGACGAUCGGCUACAAGCCCAGCGAUGAGCACAAGACCGACCUCAACCCCGACAACCUGCAGGGCGGCGACGACCUGGACCCCAACUACGUGCUGAGCUCGCGGGUGCGCACGGGCCGUGGAAUUCUCGGGUGCCAA", "RBNS enrichment (R)": 0.402}
{"Oligonucleotide": "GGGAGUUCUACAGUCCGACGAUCGGUCUGGGCCCUGCCCACCCUCCUGCCCUCCCCCAGCCACCUGGCUGCAUUUUUGAAGCUGCCUGGCCCCCAGGGGCCCUGACCUGACCUCUCUCCUCUCCCCUCACCCUUGGAAUUCUCGGGUGCCAA", "RBNS enrichment (R)": 0.686}
{"Oligonucleotide": "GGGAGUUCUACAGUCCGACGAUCAACAGUGCUUACGUUGUCUCCAUGUGUACGGGGCCUGUGUGGAUGGUCGUAUGUUUUGCACAUUUUGUAGUUGUUGGUGUGCUUCGCCGCACACAAAAAAAGAAGACUUUUGGAAUUCUCGGGUGCCAA", "RBNS enrichment (R)": 0.483}
{"data": "Study 2", "target": "Histone acetyltransferase KAT6A, winged helix 1, GST fusion (KAT6A, Homo sapiens, UniProt Q92794, residues 1-85)", "technique": "protein binding microarray", "form": "double-stranded DNA, one strand shown", "medium": "in vitro", "concentration": "not given", "notes": "8-mer, flanks averaged, mean of 2 arrays, mostly near background", "baseline": "not given", "direction": "higher = stronger binding", "Construct (chain)": "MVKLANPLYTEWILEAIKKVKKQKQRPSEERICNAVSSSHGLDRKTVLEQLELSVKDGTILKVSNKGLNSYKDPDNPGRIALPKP"}
{"Oligonucleotide": "ACACGGGC", "E-score": 0.232}
{"Oligonucleotide": "CCGAGAAG", "E-score": 0.0581}
{"Oligonucleotide": "GTAAACAA", "E-score": -0.141}
{"Oligonucleotide": "CTATCCGA", "E-score": -0.052}
{"Oligonucleotide": "CCAGCGTC", "E-score": 0.0959}
{"Oligonucleotide": "ACGCAAAC", "E-score": 0.0936}
{"Oligonucleotide": "AGAAGTTC", "E-score": -0.178}
{"Oligonucleotide": "AAGTGGTC", "E-score": -0.124}
{"Oligonucleotide": "GCCGTGAC", "E-score": 0.357}
{"Oligonucleotide": "ACTAACAA", "E-score": -0.0297}
{"Oligonucleotide": "AAACTCTA", "E-score": -0.154}
{"Oligonucleotide": "AACTTCAT", "E-score": -0.188}
{"Oligonucleotide": "AAAGATCC", "E-score": -0.102}
{"Oligonucleotide": "TAGGGATA", "E-score": -0.128}
{"Oligonucleotide": "AGGGTCCA", "E-score": -0.163}
{"Oligonucleotide": "GCTGGAGA", "E-score": -0.159}
{"Oligonucleotide": "ACGTACAG", "E-score": -0.196}
{"Oligonucleotide": "AGAACGGA", "E-score": 0.0198}
{"Oligonucleotide": "CAAAACGA", "E-score": -0.0988}
{"Oligonucleotide": "AACAGGGA", "E-score": -0.121}
{"Oligonucleotide": "CGACTCAC", "E-score": 0.0532}
{"Oligonucleotide": "ATCCGGGA", "E-score": -0.13}
{"Oligonucleotide": "TCAACGGA", "E-score": 0.0244}
{"Oligonucleotide": "AAGTATCC", "E-score": -0.0461}
{"Oligonucleotide": "ATTCGATG", "E-score": -0.143}
{"data": "Study 3", "target": "Sal-like protein 4, full length isoform A (SALL4, Homo sapiens, UniProt Q9UJQ4, residues 1-1053)", "technique": "universal PBM", "form": "double-stranded DNA, one strand shown", "medium": "in vitro", "concentration": "600 nM", "notes": "8-mer, flanks averaged, mean of replicates", "direction": "higher = stronger binding", "sequence of UniProt Q9UJQ4 (whole entry, looked up)": "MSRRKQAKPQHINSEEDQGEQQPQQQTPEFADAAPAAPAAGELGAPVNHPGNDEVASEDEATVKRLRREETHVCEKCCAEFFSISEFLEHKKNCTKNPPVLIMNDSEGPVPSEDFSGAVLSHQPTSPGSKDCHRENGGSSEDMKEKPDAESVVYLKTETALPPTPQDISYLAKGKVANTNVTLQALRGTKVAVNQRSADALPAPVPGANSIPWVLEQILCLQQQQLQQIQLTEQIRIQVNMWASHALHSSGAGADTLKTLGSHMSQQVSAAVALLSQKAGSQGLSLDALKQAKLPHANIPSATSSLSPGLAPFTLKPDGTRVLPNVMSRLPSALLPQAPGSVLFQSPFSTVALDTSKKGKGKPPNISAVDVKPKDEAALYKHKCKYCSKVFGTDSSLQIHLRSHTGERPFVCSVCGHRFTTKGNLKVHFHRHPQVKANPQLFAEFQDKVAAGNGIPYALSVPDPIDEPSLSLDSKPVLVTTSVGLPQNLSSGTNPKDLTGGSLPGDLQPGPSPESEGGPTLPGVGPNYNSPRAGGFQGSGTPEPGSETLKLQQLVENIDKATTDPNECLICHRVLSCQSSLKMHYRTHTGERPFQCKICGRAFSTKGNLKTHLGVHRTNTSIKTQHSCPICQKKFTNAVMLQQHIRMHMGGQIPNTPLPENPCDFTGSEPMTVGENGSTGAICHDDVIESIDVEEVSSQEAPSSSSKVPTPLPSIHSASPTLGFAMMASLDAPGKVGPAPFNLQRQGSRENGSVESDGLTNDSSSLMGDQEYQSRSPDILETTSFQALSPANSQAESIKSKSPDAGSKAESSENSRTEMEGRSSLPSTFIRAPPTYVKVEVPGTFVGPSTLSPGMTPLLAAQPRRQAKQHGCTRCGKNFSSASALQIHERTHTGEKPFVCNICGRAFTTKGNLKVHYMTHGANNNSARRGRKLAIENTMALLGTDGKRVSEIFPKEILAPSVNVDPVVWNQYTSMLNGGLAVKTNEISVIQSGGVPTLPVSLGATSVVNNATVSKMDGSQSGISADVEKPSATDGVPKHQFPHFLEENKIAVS"}
{"Oligonucleotide": "CAGACGAA", "E-score": 0.0801}
{"Oligonucleotide": "AGGTTGTA", "E-score": 0.127}
{"Oligonucleotide": "AGAGATTA", "E-score": 0.0982}
{"Oligonucleotide": "CGCAATAA", "E-score": 0.145}
{"Oligonucleotide": "CCGCGTAG", "E-score": -0.163}
{"Oligonucleotide": "CGTATTAG", "E-score": 0.176}
{"Oligonucleotide": "CAGTTCAG", "E-score": -0.167}
{"Oligonucleotide": "AACAAGAC", "E-score": 0.0767}
{"Oligonucleotide": "TAGTGTGA", "E-score": 0.211}
{"Oligonucleotide": "AAGTACGC", "E-score": -0.0159}
{"Oligonucleotide": "AGACTTCG", "E-score": -0.0357}
{"Oligonucleotide": "AGAATTAA", "E-score": 0.218}
{"Oligonucleotide": "AACCAAGA", "E-score": 0.144}
{"Oligonucleotide": "AGGGGAAT", "E-score": 0.017}
{"Oligonucleotide": "ATAGGTCG", "E-score": -0.0667}
{"Oligonucleotide": "GAAACCAC", "E-score": -0.164}
{"Oligonucleotide": "GCTGCGGA", "E-score": -0.198}
{"data": "Study 4", "target": "Interferon regulatory factor 3, full length, phosphomimetic (IRF3, Homo sapiens, UniProt Q14653, residues 1-427, S386D/S396D/S398D/S402D/T404D/S405D)", "technique": "protein-binding microarray", "form": "double-stranded DNA, one strand shown", "medium": "in vitro", "concentration": "2540 nM top", "notes": "60-bp whole probe", "added": "salmon DNA 0.4 mg/ml", "baseline": "random background probes", "direction": "higher = stronger binding", "shared flanks, not repeated": "GCCTAGCAC … GTCTTGATTCGCTTGACGCTGCTG", "Residues (chain)": "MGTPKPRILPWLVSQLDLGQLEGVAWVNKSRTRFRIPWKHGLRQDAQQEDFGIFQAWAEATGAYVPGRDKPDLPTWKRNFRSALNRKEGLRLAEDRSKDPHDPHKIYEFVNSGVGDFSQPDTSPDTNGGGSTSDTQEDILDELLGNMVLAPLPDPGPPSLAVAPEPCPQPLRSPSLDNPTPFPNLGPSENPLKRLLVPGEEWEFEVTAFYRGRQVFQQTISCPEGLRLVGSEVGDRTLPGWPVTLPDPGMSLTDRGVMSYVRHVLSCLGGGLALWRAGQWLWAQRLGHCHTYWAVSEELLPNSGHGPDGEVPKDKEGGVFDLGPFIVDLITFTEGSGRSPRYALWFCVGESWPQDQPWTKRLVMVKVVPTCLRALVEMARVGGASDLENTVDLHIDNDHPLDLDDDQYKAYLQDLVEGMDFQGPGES"}
{"Oligonucleotide": "GACGGTTCCCTTTTCCTAACGTGCTAG", "fitted relative affinity [z-score]": 6.34}
{"Oligonucleotide": "GTAGGTTTCGGGTTTCGGTTAGTGCTA", "fitted relative affinity [z-score]": 6.32}
{"Oligonucleotide": "GATGGTATCGGGTATCGGGACGTGCTA", "fitted relative affinity [z-score]": 1.54}
{"Oligonucleotide": "TTAGGTTACCTACTGCTTTAGTGCTAG", "fitted relative affinity [z-score]": 1.9}
{"Oligonucleotide": "GACGGCCTGGGTCTCGGGACGTGCTAG", "fitted relative affinity [z-score]": -1.23}
{"Oligonucleotide": "AAAATTTTAACCCTTATTCTGTGCTAG", "fitted relative affinity [z-score]": 0.629}
{"Oligonucleotide": "TTAGGACTGTTTTTCCTTTAGTGCTAG", "fitted relative affinity [z-score]": 1.51}
{"Oligonucleotide": "CTAATATTCATTTTATTCAAGTGCTAG", "fitted relative affinity [z-score]": 2.03}
{"Oligonucleotide": "CACTCTTGCTTTTTAGATCGGTGCTAG", "fitted relative affinity [z-score]": 1.98}
{"Oligonucleotide": "TCATTTCTCTATTGCTTACTGTGCTAG", "fitted relative affinity [z-score]": 2.5}
{"Oligonucleotide": "CACGATTTCGGGTTTCGAGACGTGCTA", "fitted relative affinity [z-score]": 2.17}
{"Oligonucleotide": "TTAAGTTTCCTTTCCCTTTAGTGCTAG", "fitted relative affinity [z-score]": 11.8}
{"Oligonucleotide": "GACGATTCCAGTTTTGAGACGTGCTAG", "fitted relative affinity [z-score]": 1.5}
{"Oligonucleotide": "TCACCTTTTAAGTTCTCACTGTGCTAG", "fitted relative affinity [z-score]": 2.94}
{"Oligonucleotide": "AGAATTTTCATTAACTGTTAGTGCTAG", "fitted relative affinity [z-score]": 0.386}
{"Oligonucleotide": "TTCAGTTTTCCTATGTCATTGTGCTAG", "fitted relative affinity [z-score]": 2.79}
{"Oligonucleotide": "TTAGGTCGCCTTATCCTTTAGTGCTAG", "fitted relative affinity [z-score]": 1.07}
{"Oligonucleotide": "GACGATATCAGGTTCGAGACGTGCTAG", "fitted relative affinity [z-score]": 0.603}
{"data": "Further values, each from its own experiment"}
{"Oligonucleotide": "GGGAGUUCUACAGUCCGACGAUCCUGAAGCUUUGUGUUUGGCUGCACCUGCAUAAGCUGCUACAAACCGAAUAAAGAAUUUCACCGCCUGUAUCUAUCAUUCCGAUGCAUGGAAAAAAAUGGGCUUUGCACACAAUGGGUUUGCAACAGAGGAUUGAGCAUCA", "target": "RING finger protein unkempt homolog, zinc fingers 1-6, SBP tag (UNK, Homo sapiens, UniProt Q9C0B0, residues 30-357)", "test": "RNA Bind-n-Seq", "system": "RNA, in vitro", "conditions": "100 nM, RNA with constant flanks, ends assumed", "scale": "baseline: input RNA pool, higher = stronger binding", "endpoint": "bound/input enrichment", "value": "0.246 ratio"}
{"note": "For quick reference, copied from above (study 4):"}
{"Oligonucleotide": "TTAGGTTACCTACTGCTTTAGTGCTAG", "fitted relative affinity [z-score]": 1.9}
{"Oligonucleotide": "GACGGCCTGGGTCTCGGGACGTGCTAG", "fitted relative affinity [z-score]": -1.23}
{"Oligonucleotide": "AAAATTTTAACCCTTATTCTGTGCTAG", "fitted relative affinity [z-score]": 0.629}
{"Oligonucleotide": "TTAGGACTGTTTTTCCTTTAGTGCTAG", "fitted relative affinity [z-score]": 1.51}
{"Oligonucleotide": "CTAATATTCATTTTATTCAAGTGCTAG", "fitted relative affinity [z-score]": 2.03}
{"Oligonucleotide": "CACTCTTGCTTTTTAGATCGGTGCTAG", "fitted relative affinity [z-score]": 1.98}
{"Oligonucleotide": "TCATTTCTCTATTGCTTACTGTGCTAG", "fitted relative affinity [z-score]": 2.5}
{"Oligonucleotide": "CACGATTTCGGGTTTCGAGACGTGCTA", "fitted relative affinity [z-score]": 2.17}
